Measured values of several laboratories.
Each line is one published result; not all experiments were run side by side. Values joined by “and” are separate records of one study, mostly repeats; a detail may differ.
Target: Amine oxidase [flavin-containing] B (MAOB, Homo sapiens, UniProt P27338)
Sequence of UniProt P27338 (whole entry, looked up): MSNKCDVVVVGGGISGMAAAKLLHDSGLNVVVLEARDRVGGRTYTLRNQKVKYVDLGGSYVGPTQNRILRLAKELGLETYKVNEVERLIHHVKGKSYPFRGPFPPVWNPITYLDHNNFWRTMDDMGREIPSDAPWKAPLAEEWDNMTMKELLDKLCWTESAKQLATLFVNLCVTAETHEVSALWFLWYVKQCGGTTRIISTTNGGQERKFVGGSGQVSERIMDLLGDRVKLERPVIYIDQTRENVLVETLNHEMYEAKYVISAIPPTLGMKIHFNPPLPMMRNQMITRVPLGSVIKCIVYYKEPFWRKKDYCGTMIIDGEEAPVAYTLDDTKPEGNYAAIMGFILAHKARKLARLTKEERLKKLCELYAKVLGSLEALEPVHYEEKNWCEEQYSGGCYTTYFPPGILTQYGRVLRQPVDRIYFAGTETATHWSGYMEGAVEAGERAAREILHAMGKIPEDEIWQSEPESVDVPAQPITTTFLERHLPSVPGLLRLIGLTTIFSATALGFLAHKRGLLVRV
Action: inhibitor

Compound	read-out	method	time	pH	temperature	together with	IC50
CCC/C=C1\OC(=O)C2=C1CC[C@@H](O)[C@H]2O	enzyme activity	fluorescence					594 µM
COc1cc2c(c(O)c1OC)C(=O)c1c(cc(C)c(O)c1OC)C2=O	enzyme activity						> 400 µM
O=C1Nc2ccc(Cl)cc2/C1=N/N=C/c1ccc(OCc2ccccc2)cc1	enzyme activity						9.76 µM
O=C(/C=C/c1ccc2c(c1)OCCO2)c1cccs1	enzyme activity	fluorescence					0.61 µM
COc1cc(OC)c2c(c1)C(O)(c1cc(C)cc(OC)c1OC)NC2=O (racemic)			20 min	pH 7.4	37 °C	kynuramine 30 µM	> 100 µM
COc1c(O)c(C)cc2c1C(=O)c1c(O)cc(O)cc1C2=O	enzyme activity						> 400 µM
Cc1ccc2c(c1)/C(=N/N=C/c1cccc(OCc3ccccc3)c1)C(=O)N2	enzyme activity						15.2 µM
COc1cc(OC)c2c(c1)C(c1cc(C)cc(OC)c1OC)NC2=O (racemic)			20 min	pH 7.4	37 °C	kynuramine 30 µM	> 100 µM
COc1cc(/C=C/C(=O)O)cc(OC)c1O	enzyme activity	fluorescence					32.8 µM
COc1ccc2c(c1)/C(=N/N=C/c1ccc(OCc3cccc(F)c3)cc1)C(=O)N2	enzyme activity						8.99 µM
CCCC[C@@H]1OC(=O)C2=C1CCC=C2	enzyme activity	fluorescence					27 µM
CCOC1(c2cc(C)cc(OC)c2OC)OC(=O)c2c(OC)cc(OC)cc21 (racemic)	enzyme activity	fluorescence		pH 7.4			16.4 µM and < 20 µM
O=C1Nc2ccc(Br)cc2/C1=N/N=C/c1ccc(OCc2ccccc2)cc1	enzyme activity						14.2 µM
COc1cc(OC2OC(CO)C(O)C(O)C2O)c2c(OC)c(C(C)=O)c(OC3OCC(O)(CO)C3O)cc2c1 (centres unmarked)	enzyme activity						> 400 µM
C/C(=N\NC(=O)c1cccc(S(=O)(=O)N2CCOCC2)c1)c1cc(Cl)ccc1O	enzyme activity						> 100 µM
Cc1cc(O)c2c(c1)C(=O)c1cc(O)c(O)c(O)c1C2=O	enzyme activity						4.55 µM
CCC/C=C1\OC(=O)c2ccccc21	enzyme activity	fluorescence					12.1 µM
COc1cc(C)cc(C2(O)NC(=O)c3c(OCc4ccccc4)cc(OCc4ccccc4)cc32)c1OC (racemic)			20 min	pH 7.4	37 °C	kynuramine 30 µM	> 100 µM
Cc1ccc(C(=O)/C=C/c2ccc3c(c2)OCCO3)s1	enzyme activity	fluorescence					0.27 µM
COc1cc(OC)c2c(c1)C(OC)(c1cc(C)cc(OC)c1OC)OC2=O (racemic)	enzyme activity	fluorescence		pH 7.4			38.9 µM
O=C1Nc2ccc(Cl)cc2/C1=N/N=C/c1ccc(OCc2cccc(F)c2)cc1	enzyme activity						20.8 µM
CCCCC1OC(=O)c2ccccc21 (centres unmarked)	enzyme activity	fluorescence					113 µM
COc1cc(OC2OC(COC3OC(CO)C(O)C(O)C3O)C(O)C(O)C2O)c2c(c1)cc(O)c1c(=O)cc(C)oc12 (centres unmarked)	enzyme activity						> 400 µM
COc1cc(C)cc(C2NC(=O)c3c(O)cc(O)cc32)c1OC (racemic)			20 min	pH 7.4	37 °C	kynuramine 30 µM	> 100 µM
COc1ccc2c(c1)/C(=N/N=C/c1cccc(OCc3ccccc3)c1)C(=O)N2	enzyme activity						12.1 µM
O=C(/C=C/c1ccc2c(c1)OCCO2)c1ccc(Br)s1	enzyme activity	fluorescence					0.12 µM
